Measured values pooled from the literature.
Protocols differ between the studies behind these lines. Numbers after ± are the reported error.
Method: steady-state kinetics
B1: BshA (Bacillus subtilis, UniProt P42982); chain MRKLKIGITCYPSVGGSGIIATELGKQLAEKGHEIHFITSSIPFRLNTYHPNIHFHEVEVNQYAVFKYPPYDLTLASKIAEVAERENLDIIHAHYALPHAVCAYLAKQMLKRNIGIVTTLHGTDITVLGYDPSLKDLIRFAIESSDRVTAVSSALAAETYDLIKPEKKIETIYNFIDERVYLKKNTAAIKEKHGILPDEKVVIHVSNFRKVKRVQDVIRVFRNIAGKTKAKLLLVGDGPEKSTACELIRKYGLEDQVLMLGNQDRVEDLYSISDLKLLLSEKESFGLVLLEAMACGVPCIGTNIGGIPEVIKNNVSGFLVDVGDVTAATARAMSILEDEQLSNRFTKAAIEMLENEFSSKKIVSQYEQIYADLAEPE
B2: LYS1 C205S/D319A (Saccharomyces cerevisiae, UniProt P38998); chain MAAVTLHLRAETKPLEARAALTPTTVKKLIAKGFKIYVEDSPQSTFNINEYRQAGAIIVPAGSWKTAPRDRIIIGLKEMPETDTFPLVHEHIQFAHCYKDQAGWQNVLMRFIKGHGTLYDLEFLENDQGRRVAAFGFYAGFAGAALGVRDWAFKQTHSDDEDLPAVSPYPNEKALVKDVTKDYKEALATGARKPTVLIIGALGRSGSGAIDLLHKVGIPDANILKWDIKETSRGGPFDEIPQADIFINCIYLSKPIAPFTNMEKLNNPNRRLRTVVDVSADTTNPHNPIPIYTVATVFNKPTVLVPTTAGPKLSVISIAHLPSLLPREASEFFSHDLLPSLELLPQRKTAPVWVRAKKLFDRHCARVKRSSRL
B3: PhnY E385A (Sinorhizobium meliloti, UniProt Q92UV7); chain MTNAEVTIAVRHEPMRIAGRLVDTDDRVEVRYPWNDTVVGTVPAGRAEHAREAFAIAAAYQPKLTRYERQKILLATAEALAARKEEISDVITLELGISKADSLYEVGRAFDVFTLAGQMCIRDDGEIFSCDLTPHGKARKIFTMREPLTAISAITPFNHPLNMVAHKVAPAIATNNCVVVKPTELTPMTALLLADILYEAGLPPEMLSVVTGWPADIGMEMITNPHVDLVTFTGSVPVGKLIAANAHYKRQVLELGGNDPLIILNDLSDDDLARAADLAVAGATKNSGQRCTAVKRILCQESVADRFVPLVLERAKRLRFGDPMDRSTDLGTVIHEKAAALFEERVMRAAEEGADILYHPGRSGALLPPIVVDRVPHQSDLVLEATFGPIIPIVRVPDDDDATITLSNSTAFGLSSGVCTNDYRRMQKYIAGLKVGTVNIWEVPGYRIEMSPFGGIKDSGNGYKEGVIEAMKSFTNVKTFSLPWP
B4: enzyme (Mortierella alpina, UniProt U5Y6A8); chain MAPPHVVDEQVRRRIVVEDEIQSKKQFERNYVPMDFTIKEIRDAIPAHLFIRDTTKSILHVVKDLVTIAIVFYCATFIETLPSLALRVPAWITYWIIQGTVMVGPWILAHECGHGAFSDSKTINTIFGWVLHSALLVPYQAWAMSHSKHHKGTGSMSKDVVFIPATRSYKGLPPLEKPAAEEEVLEQEHHHHEESIFAETPIYTLGALFFVLTLGWPLYLIMNFSGHEAPHWVNHFQTVAPLYEPHQRKNIFYSNCGIVAMGSILTYLSMVFSPLTVFMYYGIPYLGVNAWIVCITYLQHTDPKVPHFRDNEWNFQRGAACTIDRSFGTIVNHLHHHIGDSHQCHHMFSQMPFYNAVEATKHLKAKLGKYYIFDDTPIAKALYRNWRECKFVEDEGDVVFYKH
B5: MSS116 Q412A (Saccharomyces cerevisiae, UniProt P15424); chain LYNDGNRDQRNFGRNQRNNNSNRYRNSRFNSRPRTRSREDDDEVHFDKTTFSKLIHVPKEDNSKEVTLDSLLEEGVLDKEIHKAITRMEFPGLTPVQQKTIKPILSSEDHDVIARAKTGTGKTFAFLIPIFQHLINTKFDSQYMVKAVIVAPTRDLALQIEAEVKKIHDMNYGLKKYACVSLVGGTDFRAAMNKMNKLRPNIVIATPGRLIDVLEKYSNKFFRFVDYKVLDEADRLLEIGFRDDLETISGILNEKNSKSADNIKTLLFSATLDDKVQKLANNIMNKKECLFLDTVDKNEPEAHERIDQSVVISEKFANSIFAAVEHIKKQIKERDSNYKAIIFAPTVKFTSFLCSILKNEFKKDLPILEFHGKITANKRTSLVKRFKKDESGILVCTDVGARGMDFPNVHEVLQIGVPSELANYIHRIGRTARSGKEGSSVLFICKDELPFVRELEDAKNIVIAKQEKYEPSEEIKSEVLEAVTEEPEDISDIVISLISSYRSCIKEYRFSERRILPEIASTYGVLLNDPQLKIPVSRRFLDKLGLSRSPIGKAMFEIRDYSSRDGNNKSYDYDDDSEISFRGNKNYNNRSQNRDYDDEPFRRSNNNRRSFSRSNDKNNYSSRNSNIY
B6: Mj-MAT (Methanocaldococcus jannaschii, UniProt Q58605); chain MRNIIVKKLDVEPIEERPTEIVERKGLGHPDSICDGIAESVSRALCKMYMEKFGTILHHNTDQVELVGGHAYPKFGGGVMVSPIYILLSGRATMEILDKEKNEVIKLPVGTTAVKAAKEYLKKVLRNVDVDKDVIIDCRIGQGSMDLVDVFERQKNEVPLANDTSFGVGYAPLSTTERLVLETERFLNSDELKNEIPAVGEDIKVMGLREGKKITLTIAMAVVDRYVKNIEEYKEVIEKVRKKVEDLAKKIADGYEVEIHINTADDYERESVYLTVTGTSAEMGDDGSVGRGNRVNGLITPFRPMSMEAASGKNPVNHVGKIYNILANLIANDIAKLEGVKECYVRILSQIGKPINEPKALDIEIITEDSYDIKDIEPKAKEIANKWLDNIMEVQKMIVEGKVTTF
B7: MCAT R178G (Homo sapiens, UniProt Q8IVS2); chain GQGSQVVGMGRGLLNYPRVRELYAAARRVLGYDLLELSLHGPQETLDRTVHCQPAIFVASLAAVEKLHHLQPSVIENCVAAAGFSVGEFAALVFAGAMEFAEGLYAVKIGAEAMQEASEAVPSGMLSVLGQPQSKFNFACLEAREHCKSLGIENPVCEVSNYLFPDCRVISGHQEALRFLQKNSSKFHFRRTRMLPVSGAFHTRLMEPAVEPLTQALKAVDIKKPLVSVYSNVHAHRYRHPGHIHKLLAQQLVSPVKWEQTMHAIYERKKGRGFPQTFEVGPGRQLGAILKSCNMQAWKSYSAVDVL
B8: Nudt8 (Mus musculus, UniProt Q9CR24); chain MLPDGLSAEDEQRCRQLLARTTARLRSRPAAAAVLVPLCLVRGVPALLYTLRSSRLVGRHKGEVSFPGGKCDPDDQDVIHTALRETQEELGLEVPKEHVWGVLQPVYDREKATIVPVLANVGPLDLQSLRPNLEEVDEVFEMSLAHLLQTQNQGYTHFCQGGHFSYTLPVFLHGPHRVWGLTAVITELTLKLLAPGFYQPSLAVPELPRG
B9: Saccharopine reductase C154S (Saccharomyces cerevisiae, UniProt P38999); chain MGKNVLLLGSGFVAQPVIDTLAANDDINVTVACRTLANAQALAKPSGSKAISLDVTDDSALDKVLADNDVVISLIPYTFHPNVVKSAIRTKTDVVTSSYISPALRELEPEIVKAGITVMNEIGLDPGIDHLYAVKTIDEVHRAGGKLKSFLSYSGGLPAPEDSDNPLGYKFSWSSRGVLLALRNSAKYWKDGKIETVSSEDLMATAKPYFIYPGYAFVCYPNRDSTLFKDLYHIPEAETVIRGTLRYQGFPEFVKALVDMGMLKDDANEIFSKPIAWNEALKQYLGAKSTSKEDLIASIDSKATWKDDEDRERILSGFAWLGLFSDAKITPRGNALDTLCARLEELMQYEDNERDMVVLQHKFGIEWADGTTETRTSTLVDYGKVGGYSSMAATVGYPVAIATKFVLDGTIKGPGLLAPYSPEINDPIMKELKDKYGIYLKEKTVA
B10: Hpo (Pseudomonas putida, UniProt F8G0M1); chain MDHVSFTEICLRQLKMSGVHEGERLIVLTQGHERLAYADAFMAAGQRLGAEMYHMRLPSPLPSNGWAVGVTGLADLPGAVEALKNCDMLIDCVFLLFSAEQFEIQAAGTRILTAVEPPELLARMLPFPELREKVSIAAELVENAKDMRITSPHGTDITYKLNTYPTIAEYACTDTPGRWDHWPSGFVFTGGDDDGVDGTIVVAPGDVLLPQNLMVREPITYTIEKGWIVDIRGGLEAQIVNSYMDSFNDPRGKGMSHVGWGMNPHAKWHNFVPGQFTGGMGMELRSFYGNVMFSTGPNNELGGSNDTACHLDIPMRNCSLFLDDTPVVIDGDIVVKEIQLVQR
B11: PGDH1 (Oryza sativa, UniProt B7F6I8); chain VPGKPTVLVAEKLGAAGLELLRGFANVDCSYGLSPEELRAKIPLCDALIVRSGTKVGRDVFEASGGRLRVVGRAGVGIDNVDLAAATEHGCLVVNAPTANTVAAAEHGIALLTAMSRNIAQADASLKAGKWQRNKYVGVSLVGKTIAILGFGKVGSEVARRAKGLGMHVIAHDPYASADRAHAIGVELVSMEDALTTADFISLHMPLTPATNKMLNDETFAKMKKGVRIINVARGGVIDEDALVRALDSGIVAQAALDVFTKEPPAPDSKLVLHENVTVTPHLGASTVEAQEGVAIEIAEAVIGALKGELAASAVNAPMVPAEVLSELAPYVVLAEKLGRLAVQLVAGGGGIKSVKVTYASARAPDDLDTRLLRAMITKGLIEPISSVFVNLVNADFTAKQRGVRITEERILLDGSPETPIDYIQVHIAHVESKFPSAISESGEITVEGKVKDGIPHLTKVGSFQVDVSLEGSLILCRQVDQPGMIGAVGSVLGEENVNVSFMSVGRIAPRKHAVMAIGVDEEPKKSTLTKIGEIPAIEEFVFLKL
UniProt B7MMH5, sequence (whole entry, looked up): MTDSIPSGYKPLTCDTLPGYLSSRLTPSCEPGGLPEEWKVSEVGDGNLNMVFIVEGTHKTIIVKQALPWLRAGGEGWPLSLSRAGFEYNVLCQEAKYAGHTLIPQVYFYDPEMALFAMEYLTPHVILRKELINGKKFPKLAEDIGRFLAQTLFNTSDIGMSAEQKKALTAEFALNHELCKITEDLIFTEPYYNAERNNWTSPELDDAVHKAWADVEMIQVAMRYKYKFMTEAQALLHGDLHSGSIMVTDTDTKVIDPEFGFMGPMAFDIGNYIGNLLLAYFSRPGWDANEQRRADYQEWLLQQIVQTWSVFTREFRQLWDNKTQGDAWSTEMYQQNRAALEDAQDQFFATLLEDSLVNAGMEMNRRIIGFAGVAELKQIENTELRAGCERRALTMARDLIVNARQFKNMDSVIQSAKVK
UniProt Q04JB0, sequence (whole entry, looked up): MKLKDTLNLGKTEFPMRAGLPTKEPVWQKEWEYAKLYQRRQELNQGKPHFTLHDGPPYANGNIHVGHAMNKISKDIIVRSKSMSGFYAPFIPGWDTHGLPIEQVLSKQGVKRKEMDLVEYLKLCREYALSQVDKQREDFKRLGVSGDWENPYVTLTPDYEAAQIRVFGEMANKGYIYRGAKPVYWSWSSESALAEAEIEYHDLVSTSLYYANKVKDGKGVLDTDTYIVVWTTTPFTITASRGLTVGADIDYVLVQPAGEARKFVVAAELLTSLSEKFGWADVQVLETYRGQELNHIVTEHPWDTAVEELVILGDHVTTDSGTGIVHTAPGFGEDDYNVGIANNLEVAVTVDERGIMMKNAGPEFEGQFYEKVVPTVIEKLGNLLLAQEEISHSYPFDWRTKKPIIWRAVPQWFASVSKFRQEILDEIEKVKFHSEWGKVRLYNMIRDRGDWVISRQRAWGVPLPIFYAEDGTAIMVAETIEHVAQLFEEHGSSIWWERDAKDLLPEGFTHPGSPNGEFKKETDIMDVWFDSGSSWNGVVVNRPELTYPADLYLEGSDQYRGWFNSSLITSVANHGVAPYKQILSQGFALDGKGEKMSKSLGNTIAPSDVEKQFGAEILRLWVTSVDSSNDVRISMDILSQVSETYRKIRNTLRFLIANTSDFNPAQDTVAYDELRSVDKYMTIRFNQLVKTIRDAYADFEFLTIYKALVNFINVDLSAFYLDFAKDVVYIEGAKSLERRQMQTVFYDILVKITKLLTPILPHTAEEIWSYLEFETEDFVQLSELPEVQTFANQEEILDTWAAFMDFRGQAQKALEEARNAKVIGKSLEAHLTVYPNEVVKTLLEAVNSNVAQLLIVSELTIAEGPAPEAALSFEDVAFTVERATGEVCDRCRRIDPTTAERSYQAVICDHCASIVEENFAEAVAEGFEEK
UniProt Q6PHW0, sequence (whole entry, looked up): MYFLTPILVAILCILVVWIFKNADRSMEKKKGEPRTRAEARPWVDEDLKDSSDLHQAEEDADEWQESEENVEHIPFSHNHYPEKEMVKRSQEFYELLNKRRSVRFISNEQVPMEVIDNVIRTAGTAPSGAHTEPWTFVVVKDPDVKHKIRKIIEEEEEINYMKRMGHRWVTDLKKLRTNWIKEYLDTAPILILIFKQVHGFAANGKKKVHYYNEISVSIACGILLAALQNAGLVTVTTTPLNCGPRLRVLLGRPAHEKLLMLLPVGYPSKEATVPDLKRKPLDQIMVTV
UniProt Q6WZB0, sequence (whole entry, looked up): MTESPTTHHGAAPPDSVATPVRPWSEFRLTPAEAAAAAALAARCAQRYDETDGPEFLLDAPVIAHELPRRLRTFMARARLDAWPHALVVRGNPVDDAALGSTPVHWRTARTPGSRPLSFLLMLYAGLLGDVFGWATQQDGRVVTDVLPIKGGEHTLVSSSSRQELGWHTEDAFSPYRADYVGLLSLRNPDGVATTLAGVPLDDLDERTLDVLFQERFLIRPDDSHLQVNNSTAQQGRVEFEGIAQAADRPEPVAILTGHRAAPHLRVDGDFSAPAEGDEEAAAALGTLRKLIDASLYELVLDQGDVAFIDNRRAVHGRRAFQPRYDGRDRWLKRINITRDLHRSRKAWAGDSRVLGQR
UniProt P05186, sequence (whole entry, looked up): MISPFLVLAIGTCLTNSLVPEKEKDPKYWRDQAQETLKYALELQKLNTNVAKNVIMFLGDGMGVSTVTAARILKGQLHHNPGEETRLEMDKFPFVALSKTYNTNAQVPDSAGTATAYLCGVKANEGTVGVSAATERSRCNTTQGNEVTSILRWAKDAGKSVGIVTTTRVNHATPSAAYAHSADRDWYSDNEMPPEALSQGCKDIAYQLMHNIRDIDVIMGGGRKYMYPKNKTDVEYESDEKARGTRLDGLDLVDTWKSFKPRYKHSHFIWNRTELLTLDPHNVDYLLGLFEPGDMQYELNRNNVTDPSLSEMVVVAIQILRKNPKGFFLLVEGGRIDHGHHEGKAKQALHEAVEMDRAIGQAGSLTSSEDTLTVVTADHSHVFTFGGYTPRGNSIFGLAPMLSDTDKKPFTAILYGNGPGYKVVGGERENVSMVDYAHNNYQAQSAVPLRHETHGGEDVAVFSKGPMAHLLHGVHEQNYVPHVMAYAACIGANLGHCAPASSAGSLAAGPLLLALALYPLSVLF

Molecule | substrate | pH | temperature | notes | with | kcat
IYD (Homo sapiens, UniProt Q6PHW0) | N#Cc1cc(C[C@H](N)C(=O)O)cc(I)c1O | pH 7.4 | 25 °C |  | sodium dithionite 0.5% | 0.02 ± 0.003 s⁻¹
B1 (BshA) | O=C(O)C[C@H](O)C(=O)O | pH 7.5 | 21 °C |  | UDP-GlcNAc 0–4 mM | 2.63 ± 0.07 s⁻¹
B2 (LYS1 C205S/D319A) | O=C(O)CCC(=O)C(=O)O | pH 7.2 | 25 °C |  | NADH and Lys | 35 ± 5 s⁻¹
B3 (PhnY E385A) | O=CCP(=O)(O)O | pH 7.5 | 30 °C | substrate inhibition | NAD+ | 0.19 ± 0.03 s⁻¹
vioC (Streptomyces vinaceus, UniProt Q6WZB0) | N=C(N)NCCC[C@H](N)C(=O)O | pH 8 | 30 °C | apparent | alpha-ketoglutarate 1.0 mM | 43.5 ± 3.27 s⁻¹
ileS (Streptococcus pneumoniae, UniProt Q04JB0) | CC[C@H](C)[C@H](N)C(=O)O | pH 7.2 | 37 °C |  | ATP 2 mM | 0.001 ± 0.000333 s⁻¹
B4 (enzyme) | CCCCC/C=C\C/C=C\C/C=C\CCCCC(=O)SCCNC(=O)CCNC(=O)[C@H](O)C(C)(C)COP(=O)(O)OP(=O)(O)OC[C@H]1O[C@@H](n2cnc3c(N)ncnc32)[C@H](O)[C@@H]1OP(=O)(O)O | pH 7.5 | 28 °C |  |  | 0.367 ± 0.015 s⁻¹
B5 (MSS116 Q412A) | Nc1ncnc2c1ncn2[C@@H]1O[C@H](COP(=O)(O)OP(=O)(O)OP(=O)(O)O)[C@@H](O)[C@H]1O | pH 7.5 | 37 °C |  | ATP | 0.0567 ± 0.00333 s⁻¹
B6 (Mj-MAT) | CSCC[C@H](N)C(=O)O |  | 55 °C |  | ATP 2.5 mM, methionine 0.05-1 mM | 1.46 ± 0.05 s⁻¹
B7 (MCAT R178G) | CC(=O)SCCNC(=O)CCNC(=O)[C@H](O)C(C)(C)COP(=O)(O)OP(=O)(O)OC[C@H]1O[C@@H](n2cnc3c(N)ncnc32)[C@H](O)[C@@H]1OP(=O)(O)O | pH 6.8 | 20 °C | labelled substrate | holo-ACP 20 µM | 0.00667 ± 0.000833 s⁻¹
ALPL (Homo sapiens, UniProt P05186) | CC1(C)Oc2ccc(C#N)cc2[C@@H](N2CCCC2=O)[C@@H]1OP(=O)(O)O | pH 7.4 |  |  |  | 0.25 s⁻¹
mtnK (Escherichia coli, UniProt B7MMH5) | Nc1ncnc2c1ncn2[C@@H]1O[C@H](COP(=O)(O)OP(=O)(O)OP(=O)(O)O)[C@@H](O)[C@H]1O | pH 7.8 | 30 °C |  | 5-deoxyribose | 14.1 s⁻¹
B8 (Nudt8) | CCCC(=O)SCCNC(=O)CCNC(=O)[C@H](O)C(C)(C)COP(=O)(O)OP(=O)(O)OC[C@H]1O[C@@H](n2cnc3c(N)ncnc32)[C@H](O)[C@@H]1OP(=O)(O)O | pH 8.5 |  |  | 2 mM Mn2+ | 1.78 ± 0.15 s⁻¹
B9 (Saccharopine reductase C154S) | NC(=O)c1ccc[n+]([C@@H]2O[C@H](COP(=O)(O)OP(=O)(O)OC[C@H]3O[C@@H](n4cnc5c(N)ncnc54)[C@H](OP(=O)(O)O)[C@@H]3O)[C@@H](O)[C@H]2O)c1 | pH 9 | 25 °C |  | saccharopine | 0.12 ± 0.03 s⁻¹
MCM2-7 (Drosophila melanogaster) | Nc1ncnc2c1ncn2[C@@H]1O[C@H](COP(=O)(O)OP(=O)(O)OP(=O)(O)O)[C@@H](O)[C@H]1O | pH 7.6 | 30 °C | no DNA | ATP 0.03 µM-3 mM, magnesium acetate 10 mM | 0.0112 ± 0.00117 s⁻¹
B10 (Hpo) | Oc1ccc(O)nc1 | pH 7.5 | 20 °C |  | O2; Fe2+ 0.025 mM | 12.9 ± 0.6 s⁻¹
B11 (PGDH1) | O=C(O)[C@H](O)COP(=O)(O)O | pH 9 | 25 °C | NaCl 0.1 M, apparent | NAD+ | 16.5 ± 0.2 s⁻¹

A few entries again:
Molecule | substrate | pH | temperature | notes | with | kcat
mtnK (Escherichia coli, UniProt B7MMH5) | Nc1ncnc2c1ncn2[C@@H]1O[C@H](COP(=O)(O)OP(=O)(O)OP(=O)(O)O)[C@@H](O)[C@H]1O | pH 7.8 | 30 °C |  | 5-deoxyribose | 14.1 s⁻¹
B9 (Saccharopine reductase C154S) | NC(=O)c1ccc[n+]([C@@H]2O[C@H](COP(=O)(O)OP(=O)(O)OC[C@H]3O[C@@H](n4cnc5c(N)ncnc54)[C@H](OP(=O)(O)O)[C@@H]3O)[C@@H](O)[C@H]2O)c1 | pH 9 | 25 °C |  | saccharopine | 0.12 ± 0.03 s⁻¹
